Measurements of several laboratories.
Each line is one published result; not all experiments were run side by side. Several values in a cell are separate wells, animals, samples, runs or records. ± gives the spread as reported.

With CN[C@H](CC(C)C)C(=O)N[C@H]1C(=O)N[C@@H](CC(N)=O)C(=O)N[C@H]2C(=O)N[C@H]3C(=O)N[C@H](C(=O)N[C@H](C(=O)O)c4cc(O)cc(O)c4-c4cc3ccc4O)[C@H](O)c3ccc(c(Cl)c3)Oc3cc2cc(c3O[C@@H]2O[C@H](CO)[C@@H](O)[C@H](O)[C@H]2O[C@H]2C[C@](C)(NCc3ccc(-c4ccc(Cl)cc4)cc3)[C@H](O)[C@H](C)O2)Oc2ccc(cc2Cl)[C@H]1O the Vd was 1.28 L/kg (mouse, plasma; intravenous, 10 mg/kg).
The serum Albumin of CSCC[C@H](NC(=O)[C@@H](NC(=O)[C@H](CC(C)C)NC(=O)[C@@H](NC(=O)[C@H](Cc1c[nH]cn1)NC(=O)CCCCCNC(=O)[C@H](CCCNC(=N)N)NC(=O)[C@H](CCCNC(=N)N)NC(=O)[C@H](CCCNC(=N)N)NC(=O)[C@H](CCC(N)=O)NC(=O)[C@H](CCCNC(=N)N)NC(=O)[C@H](CCCNC(=N)N)NC(=O)[C@H](CCCCN)NC(=O)[C@H](CCCCN)NC(=O)[C@H](CCCNC(=N)N)NC(=O)CNC(=O)[C@@H](N)Cc1ccc(O)cc1)C(C)C)C(C)C)C(=O)N[C@@H](CS)C(=O)N[C@@H](C)C(=O)N[C@H](C(N)=O)[C@@H](C)O is reported as 2.9 g/dL and 2.7 g/dL and 2.8 g/dL (C57BL/6J mice; Alzet osmotic pump, 3 mg/kg, 8 weeks).
C[C@H](O)[C@@H](NC(=O)[C@H]1CCCN1C(=O)[C@@H](CCCCN)NC(=O)[C@@H](CO)NC(=O)[C@@H](Cc1ccc(O)cc1)NC(=O)[C@@H](CC(N)=O)NC(=O)CCOCCOCCOCCNC(=O)CN1CCN(CC(=O)O)CCN(CC(=O)O)CCN(CC(=O)O)CC1)C(=O)N[C@H](CC(=O)O)C(=O)N[C@H](CCCNC(=N)N)C(=O)N[C@H](CCC(N)=O)C(=O)N[C@H](Cc1ccc(O)cc1)C(=O)N[C@H](Cc1c[nH]cn1)C(=O)N[C@H](Cc1ccccc1)C(N)=O [gallium-68 labelled] gave a tissue uptake of 0.14 ± 0.04 %ID/g (BALB/c nude mice U-87 MG tumour, muscle; intravenous, 1.85 MBq, 2 h, radiolabelled).
For C=CC(=O)Nc1cccc(Cn2ncc3cnc(Nc4cnn(CCOC)c4)nc32)c1, the serum AST was 85 ± 13.4 U/L (Sprague-Dawley rat male, serum; oral, 180 mg/kg, day 28, 28-day subacute toxicity).
For CSCC[C@H](N)C(=O)N[C@@H](C)C(=O)N[C@@H](Cc1c[nH]c2ccccc12)C(=O)N[C@@H](Cc1c[nH]cn1)C(=O)N[C@@H](CC(=O)O)C(=O)N[C@@H](CC(=O)O)C(=O)N[C@@H](CCC(=O)O)C(=O)N[C@@H](CCC(=O)O)C(=O)N[C@@H](Cc1ccccc1)C(=O)N[C@@H](C)C(=O)N[C@@H](CCCNC(=N)N)C(=O)N[C@@H](CCCNC(=N)N)C(=O)N[C@@H](CCCNC(=N)N)C(=O)N[C@@H](CCCNC(=N)N)C(=O)NCCCCCC(=O)NCCCCC(NC(=O)CCCCCNC(=O)[C@H](CCCNC(=N)N)NC(=O)[C@H](CCCNC(=N)N)NC(=O)[C@H](CCCNC(=N)N)NC(=O)[C@H](CCCNC(=N)N)NC(=O)[C@H](C)NC(=O)[C@H](Cc1ccccc1)NC(=O)[C@H](CCC(=O)O)NC(=O)[C@H](CCC(=O)O)NC(=O)[C@H](CC(=O)O)NC(=O)[C@H](CC(=O)O)NC(=O)[C@H](Cc1c[nH]cn1)NC(=O)[C@H](Cc1c[nH]c2ccccc12)NC(=O)[C@H](C)NC(=O)[C@@H](N)CCSC)C(=O)NCCCCC(NC(=O)C(CCCCNC(=O)CCCCCNC(=O)[C@H](CCCNC(=N)N)NC(=O)[C@H](CCCNC(=N)N)NC(=O)[C@H](CCCNC(=N)N)NC(=O)[C@H](CCCNC(=N)N)NC(=O)[C@H](C)NC(=O)[C@H](Cc1ccccc1)NC(=O)[C@H](CCC(=O)O)NC(=O)[C@H](CCC(=O)O)NC(=O)[C@H](CC(=O)O)NC(=O)[C@H](CC(=O)O)NC(=O)[C@H](Cc1c[nH]cn1)NC(=O)[C@H](Cc1c[nH]c2ccccc12)NC(=O)[C@H](C)NC(=O)[C@@H](N)CCSC)NC(=O)CCCCCNC(=O)[C@H](CCCNC(=N)N)NC(=O)[C@H](CCCNC(=N)N)NC(=O)[C@H](CCCNC(=N)N)NC(=O)[C@H](CCCNC(=N)N)NC(=O)[C@H](C)NC(=O)[C@H](Cc1ccccc1)NC(=O)[C@H](CCC(=O)O)NC(=O)[C@H](CCC(=O)O)NC(=O)[C@H](CC(=O)O)NC(=O)[C@H](CC(=O)O)NC(=O)[C@H](Cc1c[nH]cn1)NC(=O)[C@H](Cc1c[nH]c2ccccc12)NC(=O)[C@H](C)NC(=O)[C@@H](N)CCSC)C(N)=O (some centres unmarked), “mean tissue distribution” read 5.87% (C57BL/6 mouse female, spine; dose not given, 6 h; relative to: total).
The tissue uptake of CC[C@H](C)[C@H](NC(=O)[C@H](CCCNC(=N)N)NC(=O)[C@H](CCCCN)NC(=O)[C@H](Cc1ccc(O)cc1)NC(=O)[C@H](CC(=O)O)NC(=O)[C@H](C)NC(=O)CNC(=O)CCOCCOCCOCCNC(=O)CN1CCN(CC(=O)O)CCN(CC(=O)O)CCN(CC(=O)O)CC1)C(=O)N[C@H](C(=O)N[C@H](C(=O)N[C@@H](CCCCN)C(=O)N[C@H](C(=O)N[C@@H](CC(N)=O)C(N)=O)C(C)C)C(C)C)[C@@H](C)O [copper-64 labelled] is reported as 0.763 ± 0.086 %ID/g (ex vivo gamma counting; C57BL/6J male mice, B16-F10 tumour, bone; intravenous, 1.85 MBq, 40 min).
O=C1NC2(CC2)COc2ncc(F)cc2[C@H]2COCCN2c2ccn3ncc1c3n2 gave an organ weight of 2.12 ± 0.235 g (Sprague-Dawley rat, female, kidneys; oral, 20 mg/kg/day, 4 weeks).
The fecal excretion of O=C1CC[C@H](N2Cc3cc(N4CCNCC4)ccc3C2=O)C(=O)N1 is reported as 4.76% (male Sprague-Dawley rat, faeces; oral, 20 mg/kg, 0-168 h; relative to: dose).
Cc1ccc(OCC2CN(C)C2)cc1C(=O)N[C@H](C)c1cc(-c2cnn(C)c2)nc2ccccc12 gave a viability of 0.893% and 1.07% (Vero E6; 500 µM).
N#[11C]c1ccc(-c2csc(NN=C3CCCC3)n2)cc1 gave a radioactivity uptake of 5.98 ± 1.06 %ID/g (C57BL/6 mice, male, liver; intravenous, 3 MBq, 60 min).
Under “platelet distribution width”, COc1ccc(CNc2ccc3c(c2)S(=O)(=O)C=C3)cc1 is recorded as 14.5% (male C57BL/6 mice, blood; intraperitoneal, 5 mg/kg, day 8, group average).
For Cc1ccc(N(C)CCN2CCOCC2)cc1C(=O)N[C@H](C)c1cc(-c2cnn(C)c2)nc2ccccc12, the viability was 25.4% and 13.1% and 20.4% (Vero E6; 500 µM).
Under plasma amylase, CC(C)C[C@H](NC(=O)CNC(=O)[C@H](CCC(N)=O)NC(=O)[C@H](CC(C)C)NC(=O)[C@H](CC(C)C)NC(=O)[C@H](CCCNC(=N)N)NC(=O)[C@H](CCC(N)=O)NC(=O)[C@H](CC(C)C)NC(=O)[C@H](CCCNC(=N)N)NC(=O)[C@H](C)NC(=O)CNC(=O)[C@H](CCC(=O)O)NC(=O)[C@H](CCCNC(=N)N)NC(=O)[C@H](CC(C)C)NC(=O)[C@H](CCCNC(=N)N)NC(=O)[C@H](CO)NC(=O)[C@H](CC(C)C)NC(=O)[C@H](CCC(=O)O)NC(=O)[C@H](CO)NC(=O)[C@@H](NC(=O)[C@H](Cc1ccccc1)NC(=O)[C@@H](NC(=O)CNC(=O)[C@H](CC(=O)O)NC(=O)C(C)(C)NC(=O)[C@@H](N)Cc1c[nH]cn1)[C@@H](C)O)[C@@H](C)O)C(=O)N[C@@H](CC(C)C)C(=O)N[C@@H](CCC(N)=O)C(=O)NCC(=O)N[C@@H](CC(C)C)C(=O)N[C@H](C(=O)NCC(=O)N[C@@H](CCCCNC(=O)COCCOCCNC(=O)COCCOCCNC(=O)CC[C@H](NC(=O)CCCCCCCCCCCCCCCCC(=O)O)C(=O)O)C(N)=O)C(C)C is recorded as “no effect” (DIO C57BL/6J mice; sc, 300 nmol/kg twice daily, 8 days; relative to: vehicle).
The tissue uptake of CC[C@H](C)[C@H](NC(=O)[C@H](CCCCN)NC(=O)CNC(=O)[C@H](CC(C)C)NC(=O)[C@H](Cc1ccccc1)NC(=O)[C@H](CCCCN)NC(=O)[C@H](CO)NC(=O)[C@H](Cc1ccccc1)NC(=O)[C@H](Cc1c[nH]c2ccccc12)NC(=O)[C@H](CCC(N)=O)NC(=O)[C@@H](NC(=O)[C@H](Cc1ccccc1)NC(=O)CCCCCNC(=O)CN1CCN(CC(=O)O)CCN(CC(=O)O)CCN(CC(=O)O)CC1)C(C)C)C(=O)N[C@@H](CCC(=O)O)C(=O)N1CCC[C@H]1C(=O)N[C@@H](CC(=O)O)C(=O)N[C@H](C(=O)N[C@@H](CO)C(=O)N[C@@H](CCC(N)=O)C(=O)N[C@H](C(=O)N[C@@H](CCC(N)=O)C(=O)N[C@@H](CC(=O)O)C(=O)N1CCC[C@H]1C(=O)N[C@@H](CC(N)=O)C(=O)N[C@@H](CC(=O)O)C(=O)N[C@@H](CCC(N)=O)C(=O)N[C@@H](Cc1ccc(O)cc1)C(=O)N[C@@H](CCC(=O)O)C(=O)N1CCC[C@H]1C(=O)N[C@@H](Cc1ccccc1)C(=O)O)C(C)C)C(C)C [copper-64 labelled] is reported as 8.65 ± 0.7 %ID/g (C57BL/6 mice, liver; added: LPS 0.1 mg/kg intratracheal).

Some of these lines once more:
O=C1NC2(CC2)COc2ncc(F)cc2[C@H]2COCCN2c2ccn3ncc1c3n2 gave an organ weight of 2.12 ± 0.235 g (Sprague-Dawley rat, female, kidneys; oral, 20 mg/kg/day, 4 weeks).
